Assay results gathered from unrelated publications.
Each line is one published result; not all experiments were run side by side. Several values in a cell are separate wells, animals, samples, runs or records.
RPS6KA6 C-terminal kinase domain: Ribosomal protein S6 kinase alpha-6, C-terminal kinase domain (RPS6KA6, Homo sapiens, UniProt Q9UK32)
RPS6KA6: Ribosomal protein S6 kinase alpha-6 (RPS6KA6, Homo sapiens, UniProt Q9UK32)
RPS6KA6 N-terminal kinase domain: Ribosomal protein S6 kinase alpha-6, N-terminal kinase domain (RPS6KA6, Homo sapiens, UniProt Q9UK32)

Compound	target	assay	setting	scale	quantity	result
Nc1ncc2c(n1)-c1c([nH]c3ccc(C4=CCOCC4)cc13)CCC2	RPS6KA6 C-terminal kinase domain	binding, competition with immobilised ligand	1 µM		remaining binding	100%
Cc1cccc(O[C@H]2CCC[C@@H](C(C)CNCc3ccncc3)C2)c1 (relative stereo)	RPS6KA6	kinase activity, kinome panel screening	1 µM		inhibition	-2%
Cc1c[nH]c2nccc(-c3ccc(C(=O)N[C@@H]4c5c(F)cc(C(F)F)cc5C[C@@H]4O)cn3)c12	RPS6KA6 N-terminal kinase domain	binding, competition with immobilised ligand	3 µM		remaining binding	7.4%
Cc1ccc(-c2c(/C=C(\C#N)C(=O)NC(C)C)n(CCCO)c3ncnc(N)c23)cc1	RPS6KA6 C-terminal kinase domain	binding, competition with immobilised ligand	1 µM		remaining binding	2%
COc1c(OCCCN2CCOCC2)ccc2c1N=C(NC(=O)c1cnc(N)nc1)N1CCN=C21	RPS6KA6	kinase activity, inhibitor	1 µM	baseline: untreated control	remaining activity	114%
CNC1C[S+]2CC[S+]3CC[S+](C1)[Ru-4]321([N]=C=S)[n]2c3ccc(OC)cc3c3c4c(c5cc(F)c[n+]1c5c32)C(=O)NC4=O (stereo not drawn)	RPS6KA6 N-terminal kinase domain	KinomeScan	0.1 µM	baseline: untreated	remaining binding	20%
C=CC(=O)N1CCc2ccc(-n3c(=O)ccc4cnc5ccc(-c6cnn(C)c6)cc5c43)cc21	RPS6KA6 C-terminal kinase domain	KINOMEscan	1 µM	baseline: DMSO control	remaining binding	66%
COc1cc(Nc2nc(C)cc(-c3cnn4nc(OC)ccc34)n2)cc(C(F)(F)F)c1	RPS6KA6 C-terminal kinase domain	binding, competition with immobilised ligand	1 µM		remaining binding	82%
CC(C)=CC1OC(C)(C)C2C=C3C(=O)C(Cl)=CC(O)C3C3C(O)C4OC4C(=O)C132 (stereo not drawn)	RPS6KA6 N-terminal kinase domain	cell-free assay, competition with immobilised ligand	10 µM		remaining binding	49%
CNC(=O)C[C@H](Cc1ccc(C#N)cc1)NC(=O)c1cc(-c2ccc(CN[C@H](C)c3ccc(C)cc3)o2)ccc1Cl	RPS6KA6	enzyme activity, inhibitor	1 µM		activity vs control	59%
CCN1CCN(Cc2ccc(C(=O)Nc3ccc(C)c(NCc4cnc5[nH]ccc5c4OC)c3)cc2C(F)(F)F)CC1	RPS6KA6 C-terminal kinase domain	binding, competition with immobilised ligand	1 µM		remaining binding	69%
NC(=O)C[C@H]1CCc2sc3ncnc(O[C@H]4CC[C@H](N5CCOCC5)CC4)c3c21	RPS6KA6	enzyme activity, inhibitor	10 µM		inhibition	13%
COc1cc(Nc2nccc(-c3cnn4nc(OC)ccc34)n2)cc(C(F)(F)F)c1	RPS6KA6 C-terminal kinase domain	binding, competition with immobilised ligand	1 µM		remaining binding	100%
Cc1cnc2nc1Nc1cccc(c1)COC/C=C/COCc1cc(ccc1OCCN1CCOCC1)N2	RPS6KA6 N-terminal kinase domain	cell-free assay	0.1 µM		remaining signal	78%
C=CC(=O)Nc1cccc(-c2cnc3[nH]cc(C(=O)NC(C)(C)C)c3n2)c1	RPS6KA6	kinase activity	0.1 µM		inhibition	21% and 20%
O=C=[N][Ru-4]123([n]4c5ccc(O)cc5c5c6c(c7cc(F)c[n+]1c7c54)C(=O)NC6=O)[S+]1CC[S+]2CC[S+]3CC1 (stereo not drawn)	RPS6KA6	enzyme activity	100 nM, human enzyme, together with: 10 µM ATP	baseline: untreated	remaining activity	22%
C=CC(=O)N1CCCC(n2c(=O)c3ncccc3n(Cc3ccc(Oc4ccccc4)cc3)c2=O)C1 (stereo not drawn)	RPS6KA6 C-terminal kinase domain	binding, competition with immobilised ligand	1 µM		remaining binding	88%
CNC(=O)C1CCN(c2cc(C)c(F)cc2NC(=O)c2ccc(-c3cc(O)ccc3C)c(C)c2)CC1	RPS6KA6 N-terminal kinase domain	binding, competition with immobilised ligand	1 µM		remaining binding	100%
O=C(Cc1ccc(OCc2ccccc2)cc1)NC1(C(=O)O)CCN(C(=O)c2ccc(-c3cccc(Cl)c3)cc2)CC1	RPS6KA6	enzyme activity, inhibitor	10 µM		activity vs control	100%
CN1CCN(Cc2ccc(-c3ccc(CO[C@H]4CCC[C@@H]4NC(=O)c4cc(-c5cnn(C)c5)cnc4N)cc3)cc2)CC1	RPS6KA6	enzyme activity, inhibitor	0.1 µM		inhibition	-7%
COc1c(Cl)cccc1Nc1c(-c2ccncc2C#C[C@@]2(C)CCCN2C(=O)/C=C/CN(C)C)[nH]c2c1C(=O)NCC2	RPS6KA6 N-terminal kinase domain	binding, competition with immobilised ligand	3 µM		remaining binding	88%

Excerpt of the above:
Compound	target	assay	setting	scale	quantity	result
COc1cc(Nc2nc(C)cc(-c3cnn4nc(OC)ccc34)n2)cc(C(F)(F)F)c1	RPS6KA6 C-terminal kinase domain	binding, competition with immobilised ligand	1 µM		remaining binding	82%
